Results gathered from unrelated publications.
Numbered parts are unrelated; each lists some results of a single study.

Sample 1
Target: RING finger protein unkempt homolog, zinc fingers 1-6, GST-SBP tag (UNK, Homo sapiens, UniProt Q9C0B0, residues 30-357)
Method: RNA Bind-n-Seq
Molecule type: RNA
Matrix: in vitro
Tested at: not given
Setting: RNA with constant flanks, human and mouse sites, ends assumed
Baseline: input RNA pool
Direction: higher = stronger binding
Target sequence (chain): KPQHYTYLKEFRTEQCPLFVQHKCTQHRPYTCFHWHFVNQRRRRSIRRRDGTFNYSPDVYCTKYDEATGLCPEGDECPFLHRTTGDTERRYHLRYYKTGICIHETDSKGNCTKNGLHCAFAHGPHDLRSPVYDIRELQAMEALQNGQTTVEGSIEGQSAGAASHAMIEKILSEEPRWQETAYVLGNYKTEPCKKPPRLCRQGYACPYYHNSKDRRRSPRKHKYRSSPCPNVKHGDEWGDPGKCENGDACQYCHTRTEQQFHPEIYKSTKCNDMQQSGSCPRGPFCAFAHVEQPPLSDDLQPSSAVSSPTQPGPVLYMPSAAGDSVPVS
Sequence | bound/input enrichment [ratio]
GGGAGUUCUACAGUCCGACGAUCAAGAUCGGAUUUCCAGAAACAGCAGAGGAAGAGCUGGAAGAAAUUGCUUCAGAGAAUUCAGAUUCCAUCUAUUCAUCAACUCCUGAAGUUAAGGCCUGAGCAUCAGACGUGUGCUGCCGACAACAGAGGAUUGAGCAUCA | 0.143
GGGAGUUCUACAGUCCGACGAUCAGGUUAACUCUGAGAGCUAUCAAACUAUGGGCCAAACGCCACAACAUCUAUUCCAAUAUAUUAGGUUUCCUCGGUGGUGUUUCCUGGGCUAUGCUAGUAGCAAGAACUUGCCAGCUUUAUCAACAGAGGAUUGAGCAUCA | 0.699
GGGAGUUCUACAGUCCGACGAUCGAGGUUGGAGGUGGUGCUGCUGGGGAACGGGAGCUGGAUGAGGGUCGAGCACGCACGCAUGCAUGCCAAGCACCGUGGCCAUGAAGCUAUGCAUGCUGAAAUGGUCCUCAUCCUCAUCGCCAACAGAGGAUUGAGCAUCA | 0.105
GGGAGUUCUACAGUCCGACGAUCAAAUACAUCCACAUCUUGGCGUACGCAGCAAGCGUGGUUGAGACCUGGAAGAAGAACAAGCGAGUGAGCAUCAAUAAAGAUGAGCUGAAGUCAACGUCAAAAGCUGUCGAAACCGUUCACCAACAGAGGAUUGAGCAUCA | 0.0833
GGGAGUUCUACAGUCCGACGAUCAUCAAGGCAGACCUGGCAGCUGUCGAGGCAAAAGUAAACCGGAGCACUGCUCUUCUGAAGAGCUUGUCUGCUGAACGUGAACGAUGGGAAAAAACAAGUGAAACUUUCAAAAACCAGAUGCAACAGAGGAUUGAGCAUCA | 0.109
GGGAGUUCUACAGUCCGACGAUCAUAUUUUUUGAACCUAAAAUACUUUACCGGGCAGCAGUGGAACAGGUCCCAGUAGAACCCUACAAGAUCCCCUUGUCUCAGGCUGAAGUCAUCCAGGAGGGCAGCGAUGUGACUCUGGUUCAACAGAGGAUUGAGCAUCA | 0.66
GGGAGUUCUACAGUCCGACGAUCACAUUAAGCAGACUGUCUCAGGUAUAAUGAAAAGAAUCGUCCAGUAGAGAUAGUGGAACAUCUUGCUAGUUGUCCUGUCUGUAGGACUCGAGAGUUGGGAGGAGGGAGGAAGGCAGGGAACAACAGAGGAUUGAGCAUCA | 1.43
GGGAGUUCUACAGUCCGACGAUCAAGCGGGGAGAAGAGCCGGCUGAGCCCGCUGAGCCGGAGCCCACAGAAGCAUGGAAGGUGGAAAAAACCCACACCGAGGUCACAGUACCUACCUCAAAUGGUGACCAAACGCAGAAAAAGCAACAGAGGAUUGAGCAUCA | 0.0859
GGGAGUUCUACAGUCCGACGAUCCUGUGUAAUGAAAAACUAUUAAAAAAGGCUCGUAUACAUCCAUUUCAUAUUUUGAUCGCAUUAGAAACUUACAAGACAGGUCAUGGUCUCAGAGGGAAACUGAAGUGGCGCCCUGAUGAACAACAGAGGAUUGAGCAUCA | 1.31
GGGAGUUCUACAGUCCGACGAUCAUACCUUCCCAAAUUGGUAACCUGGAGGCCUUGAGAGACCUUAAUGUAAGAAGAAAUCACCUAGUACAUUUGCCUGAAGAGCUGGCGGAGUUGCCUUUGAUACGGUUAGACUUCUCAUGCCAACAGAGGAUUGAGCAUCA | 0.576
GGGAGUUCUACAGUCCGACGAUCCAGAUUUAUACUCCUGACGUGUCUCAUUCACAGCUAAAUAAUAGGCCAUAGGACUUUUGGUAGGUUUAAACUUUUAAUUCUGUAUUUCAUGAUUAUAAGUCUUGCUAGAAUUUUUUCUAACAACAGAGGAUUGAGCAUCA | 2.67

Sample 2
Target: RNA binding protein fox-1 homolog 2, RRM domain, GST-SBP tag (RBFOX2, Homo sapiens, UniProt O43251-10, residues 100-194)
Method: RNA Bind-n-Seq
Molecule type: RNA
Matrix: in vitro
Tested at: 365 nM
Setting: natural RNA segment, single round, ends assumed
Baseline: no-protein control
Direction: higher = stronger binding
Residues (chain): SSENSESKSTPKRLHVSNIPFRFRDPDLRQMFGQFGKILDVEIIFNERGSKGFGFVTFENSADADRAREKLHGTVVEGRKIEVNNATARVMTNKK
Sequence | RBNS enrichment (R)
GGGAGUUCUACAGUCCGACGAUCUGCCUCCAUGUCUGUCACUUAUAAUUCAGGUUCUGCUGUUGGCUUCAGAACAUGAGCAGAAGAAUCGUUUUAUGCUAGUUAUUGCAUUCAUGGUUGAAACUCAACUUAGGUGGAAUUCUCGGGUGCCAA | 0.553
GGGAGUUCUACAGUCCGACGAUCAAAAGGAGAAAGUGAGAGGAGAGUUCUCUGCAUCCUCCCUCCUUGCUUGUCACCCAGUUGCCUUUAAACCAAAUUCUAACCAGCCUAUCCCCAGGUAGGGGGACGUUGGUUGGAAUUCUCGGGUGCCAA | 0.224
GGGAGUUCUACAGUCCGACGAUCAGACAAGGAAGCCUCACCUGGCUUUGACCUGCCAUCCGUUGCUGAGGCCACUGGCUUCCAUCCUAAGAAUGAGGUGCAACAAGACCCCAUUCUCACAGAACCUCAAAGACUGGAAUUCUCGGGUGCCAA | 0.206
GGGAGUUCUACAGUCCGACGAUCCCCUGUCCCCAACUCCAUUAUUUAUUUUGGAGCUGCCCCGCCUGGGUGGCAGGACCCCUGGGCCCUGGGGCUGUGGAUCCUGGUUCCCCAUUUGGAAAAUCACCACCUCUUGGAAUUCUCGGGUGCCAA | 0.32
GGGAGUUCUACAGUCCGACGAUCAAUAAAAAUAUAAAAAUAUGUACAUUACAUUUUGCUUAUUUUCAUAUAAAAGGUAAGACAGAGUUUGCAAAGCAUUUGUGGCUUUUUGUAGUUUACUUAAGCCAAAAUGUUGGAAUUCUCGGGUGCCAA | 0.493
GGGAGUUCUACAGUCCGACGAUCUUUCCAUAUUUUAAUUAUCAAAAUGACCAUAUCAGACUUAUUCCUGGGUAAAUUGCAUUUCAAACUAACUCAAUAUUCAGUGUUUUUGUUAAAACCUUGAACACUCCAGUUGGAAUUCUCGGGUGCCAA | 0.896
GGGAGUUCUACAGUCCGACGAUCGAUUUUACUUUUAUUUUUUAAAAAUACUAAGCAGUGAUCUUUAUUAACUAGGACCAUUUUCCUGAAUUGGACUAUAUAACUCAGCAGUAUGUUUCAGUCUUUCGGAGUAAUGGAAUUCUCGGGUGCCAA | 0.597
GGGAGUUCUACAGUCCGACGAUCUAAUAUAUUAGAAAUCUACAGAUCUGUUUUGUACUUUUUAUACUGUUGGAUACUUAUAAUCAAAACUUUUACUAGGGUAUUGAAUAAAUCUAGUCUUACUAGAAAAUAAAUGGAAUUCUCGGGUGCCAA | 0.584
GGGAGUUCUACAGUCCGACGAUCCCAACAGAUAAAAGAAGGAACAUUGCAGAGCUAGCAGUCGUGGUAUGGGGGCGACUGGGGAGUCCUCAUUGAAUCCUCAUUUUAUACCCAAAACCCUGAAGCCAUUGGAGUGGAAUUCUCGGGUGCCAA | 1.13

Sample 3
Target: Histone acetyltransferase KAT6A, both winged helices, GST fusion (KAT6A, Homo sapiens, UniProt Q92794, residues 1-181)
Method: protein binding microarray
Molecule type: double-stranded DNA, one strand shown
Matrix: in vitro
Tested at: not given
Setting: 8-mer, flanks averaged, mean of 2 arrays, mostly near background
Baseline: not given
Direction: higher = stronger binding
Residues (chain): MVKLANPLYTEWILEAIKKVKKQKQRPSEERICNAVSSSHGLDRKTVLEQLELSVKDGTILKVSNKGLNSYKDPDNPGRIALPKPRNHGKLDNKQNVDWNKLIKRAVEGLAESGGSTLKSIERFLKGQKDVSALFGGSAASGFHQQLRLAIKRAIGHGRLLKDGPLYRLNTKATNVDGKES
Sequence | E-score
CCGCCCGC | 0.316
CCGTCCGA | 0.189
GTCCGAAC | 0.121
CGCGACAA | 0.326
TACTACAA | 0.0115
AGCAGTCG | 0.0444
GATAATGC | -0.00713
ACAATTGG | -0.17
CGGAATTA | 0.132
CCAGAAGG | -0.0557
ATGGTACG | -0.00367
ATGCCTAC | -0.19
CCAGGAAA | -0.27
ATGGGTGA | -0.112
CGAGGAAG | -0.0661
ATTTCGCC | -0.0405
CATTATCC | 0.0865
CAGGTTAG | -0.12
CAGGCGTC | 0.0566
CTACTTAA | -0.0973
AAAAGAAA | -0.048
GTGTAGGA | -0.168
AATTCGAA | -0.156

Sample 4
Target: Interferon regulatory factor 3, full length, phosphomimetic (IRF3, Homo sapiens, UniProt Q14653, residues 1-427, S386D/S396D/S398D/S402D/T404D/S405D)
Method: protein-binding microarray
Molecule type: double-stranded DNA, one strand shown
Matrix: in vitro
Tested at: 2540 nM top
Setting: 60-bp whole probe
With: salmon DNA 0.4 mg/ml
Baseline: random background probes
Direction: higher = stronger binding
All sequences stand within: GCCTAGCAC … GTCTTGATTCGCTTGACGCTGCTG
Residues (chain): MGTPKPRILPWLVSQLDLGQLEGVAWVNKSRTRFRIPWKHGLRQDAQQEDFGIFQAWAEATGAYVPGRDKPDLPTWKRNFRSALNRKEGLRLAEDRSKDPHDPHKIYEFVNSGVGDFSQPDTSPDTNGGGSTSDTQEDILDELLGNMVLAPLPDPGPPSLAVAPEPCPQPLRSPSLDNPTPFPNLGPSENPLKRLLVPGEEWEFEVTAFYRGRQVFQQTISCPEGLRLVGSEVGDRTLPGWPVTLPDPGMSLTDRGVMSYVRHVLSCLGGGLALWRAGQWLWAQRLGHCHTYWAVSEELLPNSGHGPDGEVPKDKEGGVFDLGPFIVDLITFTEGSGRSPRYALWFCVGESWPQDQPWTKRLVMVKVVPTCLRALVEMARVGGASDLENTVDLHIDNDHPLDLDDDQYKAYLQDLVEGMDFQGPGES
Sequence | fitted relative affinity
TCACTTTCCCCTTCCTAACTGTGCTAG | 5.33 z-score
GACGGTATCCTTCTCCTGACGTGCTAG | 6.84 z-score
TTAGATATCCGTATCGATTAGTGCTAG | 2.41 z-score
TTAGGTCTCCTTATCCTTAAGTGCTAG | 2.99 z-score
TCAATGTTCACTATTTAACTGTGCTAG | 0.612 z-score
TCAAGTCTGGGCTACAACTTGGTGCTA | -0.621 z-score
GGCGGTTTCGACTTTCGGGACGTGCTA | 3.99 z-score
TTAAGTTTCGACTATCGGTTAGTGCTA | 2.69 z-score
TTAGGTTTCCTACTACTTTAGTGCTAG | 5.77 z-score
TTATAACTGAGACTGGATTAGTGCTAG | -0.0424 z-score
TTAGGTATCGGTTACGGTTAGTGCTAG | 4.02 z-score
TTCTGGTTCCCATTCCAGGGGTGCTAG | 4.49 z-score
TTAAGACTGGGGTTTCGGTTAGTGCTA | 2.61 z-score
GACGGTTTCGGTTTCGGTACGTGCTAG | 11.8 z-score
TCATCTCCCATTCTGAAACTGTGCTAG | 2.52 z-score
TTAGGACTGGTTATCCTTTAGTGCTAG | 0.492 z-score
GGCTTTTTTTTTTTTTTTTTGTGCTAG | 0.288 z-score
TGAGGACTGGACACTGGGTTAGTGCTA | -1.2 z-score
CCCCATCTTGTTCCCAGAGAGTGCTAG | 1.77 z-score
TCATGTTTCCATTTTCTACTGTGCTAG | 7.14 z-score
TTAGGAATGGGTTTCGGTTAGTGCTAG | 3.33 z-score
GACGGTCTCCATCTCCTGACGTGCTAG | 2.84 z-score
GACGGTTTCCTTTCCCCGACGTGCTAG | 10.6 z-score
